Assay results of several laboratories.
Compare with care: the assays were run in different laboratories. ± gives the spread as reported.
CNR2: Cannabinoid receptor 2 (CNR2, Homo sapiens, UniProt P34972)
UniProt P34972, sequence (whole entry, unmodified, looked up): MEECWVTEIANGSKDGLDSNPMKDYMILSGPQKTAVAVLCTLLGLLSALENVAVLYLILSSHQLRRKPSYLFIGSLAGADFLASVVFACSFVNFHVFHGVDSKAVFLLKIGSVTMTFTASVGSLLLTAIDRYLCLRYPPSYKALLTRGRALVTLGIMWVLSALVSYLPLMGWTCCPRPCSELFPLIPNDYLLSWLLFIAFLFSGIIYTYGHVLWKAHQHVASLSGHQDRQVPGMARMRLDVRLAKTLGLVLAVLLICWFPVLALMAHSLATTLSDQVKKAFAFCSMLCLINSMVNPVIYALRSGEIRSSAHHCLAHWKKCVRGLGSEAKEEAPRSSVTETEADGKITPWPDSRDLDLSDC
Genome polyprotein NS2B-NS3 protease: Genome polyprotein, NS2B-NS3 protease (dengue virus type 2, UniProt P29990)
C3AR1: C3a anaphylatoxin chemotactic receptor (C3AR1, Homo sapiens, UniProt Q16581)
UniProt Q16581, sequence (whole entry, looked up): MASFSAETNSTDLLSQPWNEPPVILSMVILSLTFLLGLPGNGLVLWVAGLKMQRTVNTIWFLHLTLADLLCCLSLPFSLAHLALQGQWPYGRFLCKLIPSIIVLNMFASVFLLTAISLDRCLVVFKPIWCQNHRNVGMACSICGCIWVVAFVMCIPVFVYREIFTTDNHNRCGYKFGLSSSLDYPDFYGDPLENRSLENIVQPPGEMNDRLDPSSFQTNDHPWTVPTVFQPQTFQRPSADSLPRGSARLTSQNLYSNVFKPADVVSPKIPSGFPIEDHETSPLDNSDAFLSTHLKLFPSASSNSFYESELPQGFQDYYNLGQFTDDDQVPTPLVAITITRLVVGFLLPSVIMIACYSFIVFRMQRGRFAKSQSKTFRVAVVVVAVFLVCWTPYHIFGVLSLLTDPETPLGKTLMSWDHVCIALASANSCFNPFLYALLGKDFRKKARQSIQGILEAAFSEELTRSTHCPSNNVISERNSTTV
DGKA: Diacylglycerol kinase alpha (DGKA, Homo sapiens, UniProt P23743)
GNRHR: Gonadotropin-releasing hormone receptor (GNRHR, Homo sapiens, UniProt P30968)
UniProt P30968, sequence (whole entry, looked up): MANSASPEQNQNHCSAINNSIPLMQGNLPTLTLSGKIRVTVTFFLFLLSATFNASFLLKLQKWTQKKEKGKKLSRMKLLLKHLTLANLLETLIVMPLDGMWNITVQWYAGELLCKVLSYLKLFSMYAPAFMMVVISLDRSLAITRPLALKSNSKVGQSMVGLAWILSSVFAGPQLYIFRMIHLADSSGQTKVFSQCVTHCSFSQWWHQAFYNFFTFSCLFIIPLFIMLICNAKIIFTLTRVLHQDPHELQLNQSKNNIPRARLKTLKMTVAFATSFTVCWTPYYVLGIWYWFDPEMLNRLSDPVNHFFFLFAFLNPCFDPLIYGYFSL
UniProt P46089, sequence (whole entry, unmodified, looked up): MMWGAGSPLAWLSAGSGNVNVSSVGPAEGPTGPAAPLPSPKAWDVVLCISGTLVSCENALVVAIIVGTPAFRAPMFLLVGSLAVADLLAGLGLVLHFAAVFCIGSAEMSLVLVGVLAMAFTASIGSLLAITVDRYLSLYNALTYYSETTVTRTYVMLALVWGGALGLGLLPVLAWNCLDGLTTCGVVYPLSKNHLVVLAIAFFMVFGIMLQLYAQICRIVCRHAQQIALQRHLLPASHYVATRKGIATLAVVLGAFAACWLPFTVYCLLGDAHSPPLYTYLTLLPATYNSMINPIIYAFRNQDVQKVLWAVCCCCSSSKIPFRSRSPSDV
UniProt A0A0R4IMY7, sequence (whole entry, looked up): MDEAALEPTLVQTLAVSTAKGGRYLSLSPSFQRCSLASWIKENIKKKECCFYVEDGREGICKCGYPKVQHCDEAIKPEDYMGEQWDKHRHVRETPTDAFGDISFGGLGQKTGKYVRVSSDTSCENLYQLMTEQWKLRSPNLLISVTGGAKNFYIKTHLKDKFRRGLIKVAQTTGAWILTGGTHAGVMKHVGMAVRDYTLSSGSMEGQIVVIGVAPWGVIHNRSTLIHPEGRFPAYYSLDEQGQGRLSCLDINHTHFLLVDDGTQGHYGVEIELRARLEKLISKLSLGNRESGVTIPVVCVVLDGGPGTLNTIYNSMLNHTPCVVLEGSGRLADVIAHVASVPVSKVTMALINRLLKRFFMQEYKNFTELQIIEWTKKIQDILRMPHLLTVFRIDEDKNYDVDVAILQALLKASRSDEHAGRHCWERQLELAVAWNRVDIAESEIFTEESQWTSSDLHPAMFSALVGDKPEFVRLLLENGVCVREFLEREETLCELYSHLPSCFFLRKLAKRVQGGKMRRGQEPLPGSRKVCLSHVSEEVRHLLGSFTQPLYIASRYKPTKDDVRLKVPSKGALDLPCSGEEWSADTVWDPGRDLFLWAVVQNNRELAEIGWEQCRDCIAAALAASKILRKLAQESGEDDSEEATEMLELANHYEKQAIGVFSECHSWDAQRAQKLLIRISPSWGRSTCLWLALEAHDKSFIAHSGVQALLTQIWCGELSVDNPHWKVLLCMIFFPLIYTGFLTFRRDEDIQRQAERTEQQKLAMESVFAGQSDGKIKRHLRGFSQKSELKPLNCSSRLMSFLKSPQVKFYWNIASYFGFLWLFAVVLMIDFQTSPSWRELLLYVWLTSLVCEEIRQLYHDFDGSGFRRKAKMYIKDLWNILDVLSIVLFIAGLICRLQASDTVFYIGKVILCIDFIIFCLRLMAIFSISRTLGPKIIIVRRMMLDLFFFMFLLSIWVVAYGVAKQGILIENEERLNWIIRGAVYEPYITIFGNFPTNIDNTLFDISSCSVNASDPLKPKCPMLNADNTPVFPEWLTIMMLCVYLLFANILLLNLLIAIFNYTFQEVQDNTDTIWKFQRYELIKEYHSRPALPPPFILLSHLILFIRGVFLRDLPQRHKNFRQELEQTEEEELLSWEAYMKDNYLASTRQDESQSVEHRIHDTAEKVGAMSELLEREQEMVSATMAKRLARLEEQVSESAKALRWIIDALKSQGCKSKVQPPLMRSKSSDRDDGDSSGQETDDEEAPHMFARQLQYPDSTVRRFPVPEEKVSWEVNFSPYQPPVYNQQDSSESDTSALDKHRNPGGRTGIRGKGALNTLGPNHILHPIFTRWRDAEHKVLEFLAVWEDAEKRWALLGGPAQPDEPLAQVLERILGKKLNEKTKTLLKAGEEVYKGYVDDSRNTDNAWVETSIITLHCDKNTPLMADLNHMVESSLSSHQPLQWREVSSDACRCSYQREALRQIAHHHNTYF
UniProt P43220, sequence (whole entry, unmodified, looked up): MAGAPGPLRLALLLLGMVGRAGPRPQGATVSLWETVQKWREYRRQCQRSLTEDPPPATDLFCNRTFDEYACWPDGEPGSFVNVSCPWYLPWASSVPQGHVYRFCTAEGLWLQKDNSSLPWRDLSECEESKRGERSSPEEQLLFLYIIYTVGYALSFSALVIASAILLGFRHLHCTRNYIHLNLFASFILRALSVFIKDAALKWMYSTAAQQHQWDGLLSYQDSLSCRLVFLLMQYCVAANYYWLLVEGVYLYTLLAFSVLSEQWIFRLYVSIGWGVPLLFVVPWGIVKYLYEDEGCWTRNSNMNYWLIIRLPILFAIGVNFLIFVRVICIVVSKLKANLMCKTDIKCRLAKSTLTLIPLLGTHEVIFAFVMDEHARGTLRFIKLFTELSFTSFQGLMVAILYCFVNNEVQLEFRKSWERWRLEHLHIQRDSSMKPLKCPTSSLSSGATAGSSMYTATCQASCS
UniProt Q86Y34, sequence (whole entry, looked up): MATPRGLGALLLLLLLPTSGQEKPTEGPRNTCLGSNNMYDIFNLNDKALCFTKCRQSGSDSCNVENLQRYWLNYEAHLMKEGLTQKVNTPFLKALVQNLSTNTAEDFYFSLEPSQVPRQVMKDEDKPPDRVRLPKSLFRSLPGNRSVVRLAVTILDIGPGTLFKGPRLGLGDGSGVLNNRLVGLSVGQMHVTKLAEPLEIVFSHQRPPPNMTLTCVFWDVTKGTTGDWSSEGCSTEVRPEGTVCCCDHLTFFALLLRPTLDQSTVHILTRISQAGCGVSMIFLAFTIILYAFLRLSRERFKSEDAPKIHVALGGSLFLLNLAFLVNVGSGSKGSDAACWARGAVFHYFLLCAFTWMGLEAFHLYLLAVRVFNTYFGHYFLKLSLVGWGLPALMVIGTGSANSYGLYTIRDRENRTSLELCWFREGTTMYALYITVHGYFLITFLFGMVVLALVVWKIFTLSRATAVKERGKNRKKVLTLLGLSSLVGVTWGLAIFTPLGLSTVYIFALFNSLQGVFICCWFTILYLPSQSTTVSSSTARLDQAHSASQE
UniProt P25929, sequence (whole entry, looked up): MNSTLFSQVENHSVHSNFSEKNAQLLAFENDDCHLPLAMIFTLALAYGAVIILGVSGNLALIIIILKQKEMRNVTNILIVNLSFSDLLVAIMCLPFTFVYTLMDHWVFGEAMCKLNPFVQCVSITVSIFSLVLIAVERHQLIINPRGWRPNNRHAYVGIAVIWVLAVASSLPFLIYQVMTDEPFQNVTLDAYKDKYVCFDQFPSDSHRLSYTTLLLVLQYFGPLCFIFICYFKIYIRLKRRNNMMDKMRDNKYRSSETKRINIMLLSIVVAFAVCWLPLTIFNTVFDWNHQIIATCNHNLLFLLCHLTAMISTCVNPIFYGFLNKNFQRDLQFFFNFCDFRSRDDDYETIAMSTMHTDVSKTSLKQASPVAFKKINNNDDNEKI
UniProt Q9BXA5, sequence (whole entry, looked up): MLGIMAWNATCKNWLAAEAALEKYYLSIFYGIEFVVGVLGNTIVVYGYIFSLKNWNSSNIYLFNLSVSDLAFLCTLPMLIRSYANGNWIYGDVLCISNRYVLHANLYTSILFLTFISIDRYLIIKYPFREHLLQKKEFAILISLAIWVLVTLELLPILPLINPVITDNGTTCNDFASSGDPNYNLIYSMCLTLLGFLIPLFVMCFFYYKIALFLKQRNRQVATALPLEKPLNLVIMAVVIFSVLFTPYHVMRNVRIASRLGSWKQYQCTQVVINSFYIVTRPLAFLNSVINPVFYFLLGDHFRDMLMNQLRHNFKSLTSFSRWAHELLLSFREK
UniProt P51452, sequence (whole entry, looked up): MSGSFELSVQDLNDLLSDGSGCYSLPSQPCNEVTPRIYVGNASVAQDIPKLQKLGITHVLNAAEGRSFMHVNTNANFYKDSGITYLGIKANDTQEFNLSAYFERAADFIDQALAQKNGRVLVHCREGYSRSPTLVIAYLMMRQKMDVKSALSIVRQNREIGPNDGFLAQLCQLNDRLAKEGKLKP

| SMILES | target | assay | system | conditions | EC50 [nM] |
| --- | --- | --- | --- | --- | --- |
| CCOC(=O)[C@@](CC)(CCCSCCOCCOCCN)NC(=O)c1ccc(C2CC2)c(Cc2ccc(F)cc2)n1 | CNR2 | cAMP, agonist |  |  | 11 |
| O=C(O)CCC(=O)O | SUCNR1 (Homo sapiens, UniProt Q9BXA5) | inositol phosphate, agonist |  |  | 14500 |
| CC(C)(C(=O)N1CCC(Nc2nc3c(c(=O)[nH]2)CCCC3)CC1)c1ccc(Cl)cc1 | ADGRG3 (Homo sapiens, UniProt Q86Y34) | β-arrestin recruitment, agonist |  |  | 6450 |
| CCOC(=O)C(CC)(CCCSCCOCCN)NC(=O)c1ccc(C2CC2)c(Cc2ccc(F)cc2)n1 (stereo not drawn) | CNR2 | cAMP, agonist |  |  | 8.2 |
| Cc1ccc(-n2nc(C(=O)Nc3cccc(C(N)=O)c3)cc2-c2ccc(CC(C)C)cc2)cc1 | Genome polyprotein NS2B-NS3 protease | reporter gene | HeLa |  | 12000 |
| CCOC(=O)C(CC)(CCCSCCCCCCNC(=O)OC(C)(C)C)NC(=O)c1ccc(C2CC2)c(Cc2ccc(F)cc2)n1 (stereo not drawn) | CNR2 | cAMP, agonist |  |  | 7.7 |
| CNc1ncnc2c1ncn2C1OC(CO)C(O)C1O (stereo not drawn) | ADORA2A (Homo sapiens, UniProt P29274) | G protein activation, agonist |  |  | 68000 |
| CC(C)Oc1cc(Cl)ccc1CNc1cc(-c2ccccc2)nc2ncnn12 | GPR3 (Homo sapiens, UniProt P46089, I200W) | cAMP level, agonist, cAMP GloSensor |  | I200W mutant | 2680 |
| O=C(Cc1ccc(OCc2ccccc2)cc1)NC1(C(=O)O)CCN(C(=O)c2ccc(-c3cccc(Cl)c3)cc2)CC1 | CNR2 | cAMP, agonist, luciferase |  |  | > 10000 |
| CC(C)C[C@H](NC(=O)[C@@H](N)[C@@H](C)O)C(=O)N[C@@H](CCC(N)=O)C(=O)N1CCC[C@H]1C(=O)N1CCC[C@H]1C(=O)N[C@@H](C)C(=O)N[C@@H](CO)C(=O)N[C@@H](CO)C(=O)N[C@@H](CCCNC(=N)N)C(=O)N[C@@H](CCCNC(=N)N)C(=O)N[C@@H](CCCNC(=N)N)C(=O)N[C@@H](Cc1c[nH]cn1)C(=O)N[C@@H](Cc1ccccc1)C(=O)N[C@@H](Cc1c[nH]cn1)C(=O)N[C@@H](Cc1c[nH]cn1)C(=O)N[C@@H](C)C(=O)N[C@@H](CC(C)C)C(=O)N1CCC[C@H]1C(=O)N1CCC[C@H]1C(=O)N[C@@H](C)C(=O)N[C@@H](CCCNC(=N)N)C(=O)O | C3AR1 | GoA protein dissociation, agonist, NanoBiT |  |  | 1320 |
| C[C@@]1(c2nc(-c3ccc(F)c4cn[nH]c34)no2)CCCN(C(=O)c2ccc(F)nc2)C1 | CNR2 | cAMP, agonist, luciferase |  |  | 8.06 |
| CC[C@H]1CN([C@@H](CC)c2ccc(C(F)(F)F)cc2)[C@H](CC)CN1c1nc(=O)n(C)c2ccc(C#N)nc12 | DGKA | membrane translocation, high-content imaging | Jurkat, DGKα-YFP | 1 h | 26 |
| O=C(Nc1ccc(N2CCNCC2)cc1)c1cc(-c2ccccc2)n(-c2ccccc2)n1 | Genome polyprotein NS2B-NS3 protease | reporter gene | HeLa |  | > 24000 |
| CCNC(=O)[C@@H]1CCCN1C(=O)[C@H](CCCNC(=N)N)NC(=O)[C@H](CC(C)C)NC(=O)[C@@H](COC(C)(C)C)NC(=O)[C@H](Cc1ccc(O)cc1)NC(=O)[C@H](CO)NC(=O)[C@H](Cc1c[nH]c2ccccc12)NC(=O)[C@H](Cc1cnc[nH]1)NC(=O)[C@@H]1CCC(=O)N1 | GNRHR | inositol phosphate, agonist, TR-FRET |  |  | 0.0759 |
| O=C(c1cc(-c2ccccc2)n(-c2ccccc2)n1)N1CCN(Cc2ccccn2)CC1 | Genome polyprotein NS2B-NS3 protease | reporter gene | HeLa |  | 13000 |
| CC(C)C[C@H](NC(=O)[C@H](C)NC(=O)[C@H](CO)NC(=O)[C@@H]1CCCN1C(=O)[C@@H]1CCCN1C(=O)[C@H](CCC(N)=O)NC(=O)[C@H](CC(C)C)NC(=O)[C@@H](N)[C@@H](C)O)C(=O)N[C@@H](CCCNC(=N)N)C(=O)N[C@@H](CCCNC(=N)N)C(=O)N[C@@H](CCCNC(=N)N)C(=O)N[C@@H](Cc1c[nH]cn1)C(=O)N[C@@H](Cc1ccc(O)cc1)C(=O)N[C@@H](Cc1c[nH]cn1)C(=O)N[C@@H](Cc1c[nH]cn1)C(=O)N[C@@H](C)C(=O)N[C@@H](CC(C)C)C(=O)N1CCC[C@H]1C(=O)N1CCC[C@H]1C(=O)N[C@@H](CO)C(=O)N[C@@H](CCCNC(=N)N)C(=O)O | C3AR1 | cAMP, agonist, luciferase |  |  | 1050 |
| CCOC(=O)c1cnc(NCc2cccc(NC(=O)c3cc(-c4ccccc4)n(-c4ccccc4)n3)c2)nc1 | Genome polyprotein NS2B-NS3 protease | reporter gene | HeLa |  | 23000 |
| Cn1c(=O)c(C(N)=O)c(N2CCC(Oc3ccc(OC(F)(F)F)cc3)CC2)c2ccccc21 | DGKA | DGKα-YFP translocation, high-content imaging | Jurkat |  | 113 |
| CCOC(=O)C(CC)(CCCSCCOCCOCCOCCN)NC(=O)c1ccc(C2CC2)c(Cc2ccc(F)cc2)n1 (stereo not drawn) | CNR2 | cAMP, agonist |  |  | 9.9 |
| N=C(N)NCc1ccc(CNC(=O)c2cc(-c3ccccc3)n(-c3ccccc3)n2)cc1 | Genome polyprotein NS2B-NS3 protease | reporter gene | HeLa |  | > 50000 |

| SMILES | target | assay | system | conditions | EC50 [nM] |
| --- | --- | --- | --- | --- | --- |
| CCc1cc(O)cc2c(/C=N/NC(=N)NCCc3ccc(Cl)cc3)c[nH]c12 | RXFP4 (Homo sapiens, UniProt Q8TDU9, L118S/V122S) | agonist |  |  | 6.92 |
| CCOC(=O)[C@](CC)(CCCSCCOCCOCCNC(=O)OC(C)(C)C)NC(=O)c1ccc(C2CC2)c(Cc2ccc(F)cc2)n1 | CNR2 | cAMP, agonist |  |  | 4 |
| COc1cc(C2C(NC(=O)c3ccc(NC(=O)OC(C)(C)C)cc3)(C(=O)O)C(c3ccc(OC(=O)c4cccs4)c(OC)c3)C2(NC(=O)c2ccc(NC(=O)OC(C)(C)C)cc2)C(=O)O)ccc1OC(=O)c1cccs1 (stereo not drawn) | GLP1R (Homo sapiens, UniProt P43220, Y145A) | cAMP, agonist |  |  | 14.5 |
| COc1ccc(C(=O)c2c(C(=O)NCCCN(C)C)oc3ccc(Cl)cc3c2=O)cc1OC | GHSR (Homo sapiens, UniProt Q92847) | Gα12 dissociation, agonist, TRUPATH BRET | HEK293T |  | 1260 |
| O=C1C[C@H](c2nc(-c3ccc(F)c4cn[nH]c34)no2)CCCN1c1ccc(F)cc1 (racemic) | CNR2 (Homo sapiens, UniProt P34972, F281A) | cAMP level, GloSensor cAMP |  | CB2 mutant | 724 |
| C[C@@H]1CN(Cc2ccc(S(=O)(=O)n3cnc(C4CC4)n3)cc2)[C@@H](C)CN1c1cc(=O)n(C)c2ccc(C#N)nc12 | DGKA | plasma membrane translocation, activator, TIRF microscopy, measured: endogenous DGKα | NG-DGKα knock-in cells | 720 s | 1880 |
| NC(=O)c1cccc(NC(=O)c2cccnc2N2CCOCC2)c1 | Genome polyprotein NS2B-NS3 protease | reporter gene | HeLa |  | > 50000 |
| CC[C@H](C)[C@H](NC(=O)[C@H](Cc1ccc(O)cc1)NC(=O)[C@H](CCCNC(=N)N)NC(=O)[C@H](CCCNC(=N)N)NC(=O)[C@H](CC(C)C)NC(=O)[C@H](CC(=O)O)NC(=O)[C@H](C)NC(=O)[C@H](C)NC(=O)[C@H](Cc1ccc(O)cc1)NC(=O)[C@H](CCC(N)=O)NC(=O)[C@H](C)NC(=O)[C@H](CCSC)NC(=O)[C@H](CCC(N)=O)NC(=O)[C@H](CCC(=O)O)NC(=O)[C@@H]1CCCN1C(=O)[C@@H](NC(=O)[C@H](C)NC(=O)[C@H](CC(N)=O)NC(=O)[C@H](CC(=O)O)NC(=O)CNC(=O)[C@@H]1CCCN1C(=O)[C@H](Cc1ccc(O)cc1)NC(=O)[C@@H](NC(=O)[C@@H]1CCCN1C(=O)[C@H](CCCCN)NC(=O)[C@H](CC(C)C)NC(=O)[C@@H]1CCCN1C(=O)[C@H](C)N)C(C)C)[C@@H](C)O)C(=O)N[C@@H](CC(N)=O)C(=O)N[C@@H](CCSC)C(=O)N[C@@H](CC(C)C)C(=O)N[C@H](C(=O)N[C@@H](CCCNC(=N)N)C(=O)N1CCC[C@H]1C(=O)N[C@@H](CCCNC(=N)N)C(=O)N[C@@H](Cc1ccc(O)cc1)C(N)=O)[C@@H](C)O | NPY1R (Homo sapiens, UniProt P25929) | agonist |  |  | 12.3 |
| CCOC(=O)C(CC)(CCCSCCOCCNc1ccc([N+](=O)[O-])c2nonc12)NC(=O)c1ccc(C2CC2)c(Cc2ccc(F)cc2)n1 (stereo not drawn) | CNR2 | cAMP, agonist |  |  | 171 |
| Cc1cc(C(=O)N[C@H](C(=O)Nc2cccc(C(N)=O)c2)c2ccc(OCc3ccccc3)cc2)n(Cc2ccccc2)n1 | Genome polyprotein NS2B-NS3 protease | reporter gene | HeLa |  | 6200 |
| Cn1c(=O)n(C2CCC(=O)NC2=O)c2ccc(C3CCN(CC(=O)Nc4cccc(CS(=O)(=O)N5CC[C@H](Nc6cccc(-c7sc(C(=O)O)c(OCC(=O)O)c7Cl)c6)CC5(C)C)c4)CC3)cc21 (stereo partly drawn) | DUSP3 (Homo sapiens, UniProt P51452) | phosphatase activity |  | added: DiFMUP substrate | > 10000 |
| Fc1ccc(CN2CCC[C@@H](c3nc(-c4ccc(F)c5cn[nH]c45)no3)C2)cn1 | CNR2 | cAMP, agonist, luciferase |  |  | 96 |
| Nc1ncnc2c1ncn2[C@@H]1O[C@H](COP(=O)(O)OP(=O)(O)OC[C@H]2OC(O)[C@H](O)[C@@H]2O)[C@@H](O)[C@H]1OP(=O)(O)O (stereo partly drawn) | trpm2 (Danio rerio, UniProt A0A0R4IMY7) | activator |  |  | 30 ± 3 |
| C=C1C(=O)OC2C=C(C)C(OC(C)=O)CC=C(COC(C)=O)CC(OC(=O)C(C)=CCO)C12 (stereo not drawn) | BCAT1 (Homo sapiens, UniProt P54687) |  |  |  | 11700 |
| CC1=NC(C)C(C)S1 (stereo not drawn) | uncharacterized protein (Canis lupus familiaris, UniProt A0A8I3P1R6) | cAMP level, agonist, cAMP luminescence | HEK293 cells |  | 259000 ± 10800 |
| CCOC(=O)C(CC)(CCCSCCOCCOCCOCCOCCNc1ccc([N+](=O)[O-])c2nonc12)NC(=O)c1ccc(C2CC2)c(Cc2ccc(F)cc2)n1 (stereo not drawn) | CNR2 | cAMP, agonist |  |  | 20 |
| O=C(Nc1cccc(CN2CCc3nc[nH]c3C2)c1)c1cc(-c2ccccc2)n(-c2ccccc2)n1 | Genome polyprotein NS2B-NS3 protease | reporter gene | HeLa |  | 5800 |
| CC(C)C[C@H](NC(=O)[C@@H](Cc1ccc2ccccc2c1)NC(=O)[C@H](Cc1ccc(O)cc1)NC(=O)[C@H](CO)NC(=O)[C@H](Cc1c[nH]c2ccccc12)NC(=O)[C@H](Cc1c[nH]cn1)NC(=O)[C@@H]1CCC(=O)N1)C(=O)N[C@@H](CCCNC(=N)N)C(=O)N1CCC[C@H]1C(=O)NCC(N)=O | GNRHR | inositol phosphate, agonist, TR-FRET |  |  | 0.224 |
| CC[C@H](C)[C@H](NC(=O)[C@H](CCCNC(=N)N)NC(=O)[C@H](CCCNC(=N)N)NC(=O)[C@H](CC(C)C)NC(=O)[C@H](Cc1ccccc1)NC(=O)CNC(=O)CN)C(=O)N[C@@H](CCCNC(=N)N)C(=O)N1CCC[C@H]1C(=O)N[C@@H](CCCCN)C(=O)N[C@@H](CC(C)C)C(=O)N[C@@H](CCCCN)C(N)=O | GPR139 (Homo sapiens, UniProt Q6DWJ6) | calcium response, agonist, BRET | HEK293T/17, transfected |  | 5610 ± 620 |

Excerpt of the above:
| SMILES | target | assay | system | conditions | EC50 [nM] |
| --- | --- | --- | --- | --- | --- |
| O=C(O)CCC(=O)O | SUCNR1 (Homo sapiens, UniProt Q9BXA5) | inositol phosphate, agonist |  |  | 14500 |
| CC(C)(C(=O)N1CCC(Nc2nc3c(c(=O)[nH]2)CCCC3)CC1)c1ccc(Cl)cc1 | ADGRG3 (Homo sapiens, UniProt Q86Y34) | β-arrestin recruitment, agonist |  |  | 6450 |
| CCOC(=O)C(CC)(CCCSCCOCCN)NC(=O)c1ccc(C2CC2)c(Cc2ccc(F)cc2)n1 (stereo not drawn) | CNR2 | cAMP, agonist |  |  | 8.2 |
| Cc1ccc(-n2nc(C(=O)Nc3cccc(C(N)=O)c3)cc2-c2ccc(CC(C)C)cc2)cc1 | Genome polyprotein NS2B-NS3 protease | reporter gene | HeLa |  | 12000 |
| CCOC(=O)C(CC)(CCCSCCCCCCNC(=O)OC(C)(C)C)NC(=O)c1ccc(C2CC2)c(Cc2ccc(F)cc2)n1 (stereo not drawn) | CNR2 | cAMP, agonist |  |  | 7.7 |
